{"data": "Results pooled from the literature", "note": "Parts stem from different laboratories: compare values within a part only. Substitutions count along the parent as printed."}
{"data": "Sample 1", "target": "Eukaryotic initiation factor 4A-I (EIF4A1, Homo sapiens, UniProt P60842, residues 1-406, full length assumed)", "technique": "RNA Bind-n-Seq", "form": "RNA", "sample": "in vitro", "tested at": "not given", "setting": "4-mer, random 30-nt RNA, single round", "with": "RocA, ADP, phosphate", "relative to": "input library", "direction": "higher = stronger binding", "chain of UniProt P60842 (whole entry, looked up)": "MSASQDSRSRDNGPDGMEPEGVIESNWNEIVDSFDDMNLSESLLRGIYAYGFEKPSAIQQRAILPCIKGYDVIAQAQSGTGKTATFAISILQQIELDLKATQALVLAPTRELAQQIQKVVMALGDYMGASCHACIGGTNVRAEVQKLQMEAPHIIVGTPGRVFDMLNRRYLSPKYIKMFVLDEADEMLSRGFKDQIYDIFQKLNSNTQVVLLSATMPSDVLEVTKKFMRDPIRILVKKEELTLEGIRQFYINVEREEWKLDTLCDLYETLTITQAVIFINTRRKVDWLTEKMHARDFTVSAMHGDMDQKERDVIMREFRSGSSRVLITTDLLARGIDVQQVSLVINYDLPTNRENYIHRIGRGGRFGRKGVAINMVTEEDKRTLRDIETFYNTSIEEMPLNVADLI"}
{"Oligonucleotide": "GUCG", "4-mer enrichment [fold]": 0.903}
{"Oligonucleotide": "GCCC", "4-mer enrichment [fold]": 0.637}
{"Oligonucleotide": "UGAC", "4-mer enrichment [fold]": 0.684}
{"Oligonucleotide": "GUAA", "4-mer enrichment [fold]": 1.13}
{"Oligonucleotide": "GCAG", "4-mer enrichment [fold]": 0.98}
{"Oligonucleotide": "GAUA", "4-mer enrichment [fold]": 0.999}
{"Oligonucleotide": "UUGA", "4-mer enrichment [fold]": 1.49}
{"Oligonucleotide": "GAAU", "4-mer enrichment [fold]": 1.46}
{"Oligonucleotide": "ACGA", "4-mer enrichment [fold]": 1.05}
{"Oligonucleotide": "UAAA", "4-mer enrichment [fold]": 1.05}
{"Oligonucleotide": "CGCA", "4-mer enrichment [fold]": 0.686}
{"Oligonucleotide": "AGAU", "4-mer enrichment [fold]": 1.39}
{"Oligonucleotide": "CGAA", "4-mer enrichment [fold]": 0.98}
{"Oligonucleotide": "AAAU", "4-mer enrichment [fold]": 1.12}
{"Oligonucleotide": "UUAG", "4-mer enrichment [fold]": 1.09}
{"data": "Sample 2", "target": "UBE2G2 UBC core domain (UniProt P60604)", "technique": "yeast two-hybrid", "sample": "yeast", "setting": "mostly zero background", "relative to": "not given", "direction": "higher = stronger interaction", "B1": "RNF133 RING domain (UniProt Q8WVZ7); chain DEEINPNGDSCVICFERYKPNDIVRILTCKHFFHKNCIDPWILPHGTCPICKCDILKVLGIQ", "B2": "SH3RF1 RING domain (UniProt Q7Z6J0); chain DESALLDLLECPVCLERLDASAKVLPCQHTFCKRCLLGIVGSRNELRCPECRTLVGSGVEEL", "B3": "MDM4 RING domain (UniProt O15151); chain MEDCQNLLKPCSLCEKRPRDGNIIHGRTGHLVTCFHCARRLKKAGASCPICKKEIQLVIKVF", "B4": "TRIM62 RING domain (UniProt Q9BVG3); chain MACSLKDELLCSICLSIYQDPVSLGCEHYFCRRCITEHWVRQEAQGARDCPECRRTFAEPALAP", "chain of UniProt P60604 (whole entry, looked up)": "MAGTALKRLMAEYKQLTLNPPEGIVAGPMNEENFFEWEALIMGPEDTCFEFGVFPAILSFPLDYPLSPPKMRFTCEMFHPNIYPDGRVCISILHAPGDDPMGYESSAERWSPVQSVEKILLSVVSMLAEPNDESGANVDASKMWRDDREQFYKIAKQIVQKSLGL"}
{"Sequence": "B1 (RNF133 RING domain)", "lacZ reporter activity": 11300}
{"Sequence": "B2 (SH3RF1 RING domain)", "lacZ reporter activity": 0}
{"Sequence": "B3 (MDM4 RING domain)", "lacZ reporter activity": 0}
{"Sequence": "GSDDEEIPFKCFICRQSFQNPVVTKCRHYFCESCALQHFRTTPRCYVCDQQTNGVFNPA (RNF113A RING domain (UniProt O15541))", "lacZ reporter activity": 0}
{"Sequence": "AVPSGLEENLCKICMDSPIDCVLLECGHMVTCTKCGKRMNECPICRQYVIRAVHVF (RFFL RING domain (UniProt Q8WZ73))", "lacZ reporter activity": 11500}
{"Sequence": "FDGDVDPDLKCALCHKVLEDPLTTPCGHVFCAGCVLPWVVQEGSCPARCRGRLSAKELN (PDZRN3 RING domain (UniProt Q9UPQ7))", "lacZ reporter activity": 0}
{"Sequence": "KLRKLKEAMLCMVCCEEEINSTFCPCGHTVCCESCAAQLQSCPVCRSRVEHVQHVY (MYLIP RING domain (UniProt Q8WY64))", "lacZ reporter activity": 0}
{"Sequence": "GSRLQEINDVCAICYHEFTTSARITPCNHYFHALCLRKWLYIQDTCPMCHQKVYIEDDIK (RNF139 RING domain (UniProt Q8WU17))", "lacZ reporter activity": 2100}
{"Sequence": "AMYLQENGIDCPKCKFSYALARGGCMHFHCTQCRHQFCSGCYNAFYAKNKC (RNF31 RING domain (UniProt Q96EP0))", "lacZ reporter activity": 0}
{"Sequence": "B4 (TRIM62 RING domain)", "lacZ reporter activity": 0}
{"Sequence": "NLSELTPYILCSICKGYLIDATTITECLHTFCKSCIVRHFYYSNRCPKCNIVVHQTQPLY (PCGF6 RING domain (UniProt Q9BYE7))", "lacZ reporter activity": 0}
{"data": "Sample 3", "target": "Protein C-ets-1 (ETS1, Homo sapiens, UniProt P14921, residues 1-441, full length assumed)", "technique": "protein-binding microarray", "form": "double-stranded DNA, one strand shown", "sample": "in vitro", "tested at": "not given", "setting": "k-mer, scored over probes, only values ≥0.25", "direction": "higher = stronger binding", "Residues (chain)": "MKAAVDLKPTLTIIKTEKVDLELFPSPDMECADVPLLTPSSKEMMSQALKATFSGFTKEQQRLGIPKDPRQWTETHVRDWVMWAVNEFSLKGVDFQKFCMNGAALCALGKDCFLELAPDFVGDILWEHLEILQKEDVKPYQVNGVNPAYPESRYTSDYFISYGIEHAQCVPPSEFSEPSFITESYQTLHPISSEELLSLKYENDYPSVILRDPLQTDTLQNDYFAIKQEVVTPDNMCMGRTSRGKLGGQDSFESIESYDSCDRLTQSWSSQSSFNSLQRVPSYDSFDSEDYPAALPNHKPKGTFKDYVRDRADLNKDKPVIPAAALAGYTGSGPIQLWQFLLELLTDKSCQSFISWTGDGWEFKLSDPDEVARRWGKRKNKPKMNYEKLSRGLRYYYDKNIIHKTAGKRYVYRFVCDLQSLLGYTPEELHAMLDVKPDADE"}
{"Oligonucleotide": "GCGGATAA", "E-score": 0.261}
{"Oligonucleotide": "TTAGGAAA", "E-score": 0.279}
{"Oligonucleotide": "AGGTATCC", "E-score": 0.319}
{"Oligonucleotide": "GGAAATAA", "E-score": 0.416}
{"Oligonucleotide": "CAGATCCG", "E-score": 0.283}
{"Oligonucleotide": "CACCATCC", "E-score": 0.306}
{"Oligonucleotide": "CCGGTACG", "E-score": 0.294}
{"Oligonucleotide": "GGACATCC", "E-score": 0.428}
{"Oligonucleotide": "CGGACACA", "E-score": 0.288}
{"Oligonucleotide": "CAGGATGG", "E-score": 0.402}
{"Oligonucleotide": "GCGGAAAC", "E-score": 0.473}
{"Oligonucleotide": "GCGGACGC", "E-score": 0.39}
{"Oligonucleotide": "GAAGTGCC", "E-score": 0.319}
{"Oligonucleotide": "GCATCCCC", "E-score": 0.259}
{"Oligonucleotide": "GGAGGAAA", "E-score": 0.367}
{"Oligonucleotide": "CGCGTATC", "E-score": 0.251}
{"data": "Sample 4", "target": "RNA binding protein fox-1 homolog 2, RRM domain, GST-SBP tag (RBFOX2, Homo sapiens, UniProt O43251-10, residues 100-194)", "technique": "RNA Bind-n-Seq", "form": "RNA", "sample": "in vitro", "tested at": "365 nM", "setting": "natural RNA segment, single round, ends assumed", "relative to": "no-protein control", "direction": "higher = stronger binding", "constant ends, left off below": "GGGAGUUCUACAGUCCGACGAUC … UGGAAUUCUCGGGUGCCAA", "Construct (chain)": "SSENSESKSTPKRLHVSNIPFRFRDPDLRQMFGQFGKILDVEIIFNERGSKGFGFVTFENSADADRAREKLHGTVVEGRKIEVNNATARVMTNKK"}
{"Oligonucleotide": "GUGCUUCCCUCAGCUGAGCCGCCACCUCCAGGAACCCGUUCCUACUUUAGAGCUAGGAUGAGGGCACCUCUCCUCCUCCAUGGAUCACCAAGGGGGCUCUUGCAUUGAGC", "RBNS enrichment (R)": 0.282}
{"Oligonucleotide": "CAGCCUCCCAAGUAGCUGGGAUUACAAGCAUGUGCCACCAUGCCCAGCUAAUUUCUGUAUUUUAGUAGAGACAAGGUUUCACCAUGUUGGCCAGGCUGGUCUCGAACUCC", "RBNS enrichment (R)": 0.711}
{"Oligonucleotide": "AUAAAUUUUAUGAACCCCAGGCAUACUGCUUGUUUUUUUAAAAAAAAAUAAAACUCAAAAUUGAUCUACAAAACACUUUGUGAUAGUAGAUUGGGGUAGAUAUUUUUACC", "RBNS enrichment (R)": 0.62}
{"Oligonucleotide": "CUCUCCACCUCCACCCCACCAGAGAGUAGCGAUUGCUUUUUAGUCUAUUUUGUUGUCAAUACAAUUUAAUAUCAAUCAGAGUAAUCCUUUGUACAUUGAGAGGAGGGGCU", "RBNS enrichment (R)": 0.364}
{"Oligonucleotide": "GGAGUUGAAUAGCUUUUGCUUUGCAACACUAAUCCUCACACUUAAAAUGAUUCCAUUAAUCUUACUCAGAAGACAAAUAAGGAGGUUCUGAUGAAAUCUCUGAAAAAAAA", "RBNS enrichment (R)": 0.259}
{"Oligonucleotide": "AAGUUAAAAUUUAAGAUAAGGUUUAAAAAGCUUUAUUCCUGUUUACAAUUUGGGAUGAGAAGCAGGCUUCGUUUUAAGUUUAUUGAAAACUGGCUCAGAUGUUUAUAAGU", "RBNS enrichment (R)": 0.6}
{"Oligonucleotide": "CAUUGAAAGUAGUGCUGUAAAUAUUCUGCCAUAGGAAUACUGUCUACAUGCUUUCUCAUUCAAGAAUUCGUCAUCACGCAUCACAGGCCGCGUCUUUGACGGUGGGUGUC", "RBNS enrichment (R)": 0.234}
{"Oligonucleotide": "CUCCAGGAGACUUGGGGAUUUGUGUUUAGCUAUGUGUGGGAAUUUGCAAAUGCUUUGUGCUUUGACUGUCACCACGAAAAGGAAGAAAUUCAUGUCAGUGAAGAAAUGCA", "RBNS enrichment (R)": 1.36}
{"data": "Sample 5", "target": "CCNB2, cyclin fold, Cln2 fusion (human)", "technique": "yeast growth competition, sequencing", "sample": "yeast", "setting": "weak parent motif", "relative to": "not given", "direction": "higher = stronger binding", "starting sequence": "CDKN1B docking peptide (human); PSACRNLFGPVDH"}
{"Change": "R5V", "normalised enrichment score": -0.0578}
{"Change": "G9V", "normalised enrichment score": 0.198}
{"Change": "A3M", "normalised enrichment score": 0.357}
{"Change": "L7T", "normalised enrichment score": -0.124}
{"Change": "N6C", "normalised enrichment score": -0.131}
{"Change": "F8P", "normalised enrichment score": 0.0774}
{"Change": "P10N", "normalised enrichment score": 0.121}
{"Change": "H13M", "normalised enrichment score": -0.2}
{"Change": "V11S", "normalised enrichment score": -0.181}
{"Change": "S2L", "normalised enrichment score": 0.111}
{"Change": "D12V", "normalised enrichment score": -0.0024}
{"Change": "H13P", "normalised enrichment score": -0.163}
{"Change": "C4D", "normalised enrichment score": -0.0824}
{"Change": "N6A", "normalised enrichment score": -0.015}
{"Change": "C4Q", "normalised enrichment score": -0.18}
{"Change": "R5W", "normalised enrichment score": -0.323}
{"Change": "P10M", "normalised enrichment score": -0.221}
{"Change": "R5I", "normalised enrichment score": -0.396}
{"Change": "A3L", "normalised enrichment score": 0.257}
{"Change": "G9C", "normalised enrichment score": 0.408}
{"Change": "L7W", "normalised enrichment score": -0.0141}
{"Change": "V11Q", "normalised enrichment score": -0.0754}
{"Change": "G9H", "normalised enrichment score": 0.203}
{"Change": "L7F", "normalised enrichment score": 0.227}
{"Change": "D12P", "normalised enrichment score": -0.113}
{"note": "For quick reference, copied from above (sample 5):"}
{"Change": "A3M", "normalised enrichment score": 0.357}
{"Change": "L7T", "normalised enrichment score": -0.124}
{"Change": "N6C", "normalised enrichment score": -0.131}
{"Change": "F8P", "normalised enrichment score": 0.0774}
{"Change": "P10N", "normalised enrichment score": 0.121}
{"Change": "H13M", "normalised enrichment score": -0.2}
{"Change": "V11S", "normalised enrichment score": -0.181}
{"Change": "S2L", "normalised enrichment score": 0.111}
{"Change": "D12V", "normalised enrichment score": -0.0024}
{"Change": "H13P", "normalised enrichment score": -0.163}
